Assay results of several laboratories.
Observed: metabolic stability
Host: human

SMILES	sample	concentration	pH	half-life [h]
O=C(CCN1C(=O)CSc2ccccc21)Nc1nnc(-c2ccccn2)[nH]1	liver microsomes	–	–	1.78
COc1cc(-c2nc3ccc(C(=O)NCCCN4CCN(C5CCCCC5)CC4)cc3n2C2CCC2)cc(OC)c1OC	liver microsomes	–	–	0.638
[2H]c1c(NS(C)(=O)=O)c([2H])c2c(C(=O)c3ccc(OCCCN(CCCC)CCCC)cc3)c(CCCC)oc2c1[2H]	liver microsomes	1 µM	–	0.171
C[N+]1(CC(=O)OC2CCCCCCCCCCC2)CCCCC1	liver microsomes	–	–	0.0567
COc1cc(F)cc(-c2nc3ccc(C(=O)NCCCN(C)C)cc3n2C2CCC2)c1	liver microsomes	–	–	3.23
CCN(c1nc(N[C@H](CC(N)=O)C(=O)NC)nc(N2CCN(c3ccccc3C#N)CC2)n1)C1CCCCC1	liver microsomes	–	–	2.5
Fc1cc2scnc2cc1Nc1ncnc2sc(C3=CCCNC3)cc12	liver microsomes	1 µM	–	> 2
[2H]C(Cc1c[nH]c2ccccc12)(Nc1ccccc1)C(=O)O (stereo not shown)	liver microsomes	1.5 µM	pH 7.4	5.91
O=C(O)c1ccc(/C=C2\SC(=S)N(Cc3cccc(C(F)(F)F)c3)C2=O)cc1	liver microsomes	1 µM	–	> 2.42
Cc1cc2c(cc1O)C=C1C=CC(=O)C(C)(C)[C@H]1CC2	liver microsomes	1 mM	pH 7.4	0.478
COc1cc(-c2nc3ccc(C(=O)NCCCN4CCN(C(=O)c5ccccc5)CC4)cc3n2C2CCC2)cc(OC)c1OC	liver microsomes	–	–	0.257
O=C(NC1CC1)N1CCC=C(c2cc3c(Nc4cc5ncsc5cc4F)ncnc3s2)C1	liver microsomes	–	–	> 2
CC(C)C[C@@H](CC(=O)N[C@@H](CO)C(=O)N1CCC[C@H]1C(=O)N[C@H](C(N)=O)[C@@H](C)O)NC(=O)[C@H](Cc1cccc2ccccc12)NC(=O)[C@H](CNC(=O)c1ccc2cc(F)ccc2c1)NC(=O)[C@H](CO)NC(=O)C1CCNCC1	liver S9	3 µM	pH 7.4	1.48
C=CC(=O)Nc1cccc(Cn2ncc3cnc(Nc4cnn(CCOC)c4)nc32)c1	hepatocytes	–	–	1
CCC(=O)NC1CC=C(c2cc3c(Nc4cc5ncsc5cc4F)ncnc3s2)CC1 (racemic)	liver microsomes	–	–	> 2
O=c1c(-c2cnn(-c3ccc(Cl)cc3)c2)c(C(F)(F)F)oc2c(O)c(O)ccc12	liver microsomes	–	–	> 5
Cc1nc(-c2ccc(NC(=O)c3cccs3)cc2Cl)no1	liver microsomes	–	–	0.64
CC12CC3(C)CC(C)(C1)CC(NC(=O)NC1CCC(Oc4ccc(C(=O)O)cc4)CC1)(C2)C3 (stereo not shown)	liver microsomes	–	–	0.0583
CCCNC(=O)NC1CC=C(c2cc3c(Nc4cc5ncsc5cc4F)ncnc3s2)CC1 (racemic)	liver microsomes	–	–	> 2
CC(C)(C)c1nc(-c2ccc(NC(=O)c3cccs3)cc2Cl)no1	liver microsomes	–	–	0.947
CC(C)C(=O)N1CC=C(c2cc3c(Nc4cc5ncsc5cc4F)ncnc3s2)CC1	liver microsomes	–	–	> 2
CNC(=O)C1CCN(c2cc(C)ccc2NC(=O)c2ccc(-c3cc(O)ccc3C)c(C)c2)CC1	liver microsomes	2 µM	–	1.9
CCC(=O)N1CCC=C(c2cc3c(Nc4cc5ncsc5cc4F)ncnc3s2)C1	liver microsomes	–	–	> 2
O=C1N[C@H](CO)Cc2cccc(c2)CCCOc2cccc1c2	liver microsomes	1 µM	–	0.517
O=C(C1CC1)N1CCC=C(c2cc3c(Nc4cc5ncsc5cc4F)ncnc3s2)C1	liver microsomes	–	–	> 2
Cc1ccccc1OC[C@@H](N)c1ccccc1	liver microsomes	–	–	2.27
C=CCNC(=O)NC1CC=C(c2cc3c(Nc4cc5ncsc5cc4F)ncnc3s2)CC1 (racemic)	liver microsomes	–	–	> 2
Cc1ccc(N2C(=O)c3ccccc3NC23C(=O)N(C)c2ccc(Br)cc23)cc1 (stereo not shown)	liver microsomes	–	–	< 0.0383

Some of these lines once more:
SMILES	sample	concentration	pH	half-life [h]
O=C(O)c1ccc(/C=C2\SC(=S)N(Cc3cccc(C(F)(F)F)c3)C2=O)cc1	liver microsomes	1 µM	–	> 2.42
CCCNC(=O)NC1CC=C(c2cc3c(Nc4cc5ncsc5cc4F)ncnc3s2)CC1 (racemic)	liver microsomes	–	–	> 2
